Published values gathered from unrelated publications.
A part holds a random share of what one study measured. Changes are numbered by the printed parent chain.
UniProt Q9UK32, sequence (whole entry, looked up): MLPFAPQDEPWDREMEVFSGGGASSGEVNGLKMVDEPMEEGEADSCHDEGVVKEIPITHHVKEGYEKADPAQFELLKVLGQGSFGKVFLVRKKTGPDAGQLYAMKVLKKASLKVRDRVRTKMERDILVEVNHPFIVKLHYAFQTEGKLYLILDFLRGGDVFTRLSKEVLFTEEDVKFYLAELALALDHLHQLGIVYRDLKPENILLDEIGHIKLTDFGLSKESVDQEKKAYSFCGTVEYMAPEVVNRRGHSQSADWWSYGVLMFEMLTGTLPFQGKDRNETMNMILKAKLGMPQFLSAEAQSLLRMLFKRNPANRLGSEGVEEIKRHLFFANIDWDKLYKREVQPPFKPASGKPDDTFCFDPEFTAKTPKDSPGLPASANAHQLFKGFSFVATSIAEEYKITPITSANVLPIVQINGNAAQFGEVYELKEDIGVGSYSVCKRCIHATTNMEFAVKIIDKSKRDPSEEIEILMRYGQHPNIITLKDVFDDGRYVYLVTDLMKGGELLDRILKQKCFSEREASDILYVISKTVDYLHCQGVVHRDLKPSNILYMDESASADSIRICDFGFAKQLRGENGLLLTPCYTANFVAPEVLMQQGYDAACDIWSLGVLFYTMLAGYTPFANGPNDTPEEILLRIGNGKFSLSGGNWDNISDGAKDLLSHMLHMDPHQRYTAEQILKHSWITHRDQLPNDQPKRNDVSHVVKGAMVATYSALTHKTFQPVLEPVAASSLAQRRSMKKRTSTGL

Series 1
Target: CEBPD, bZIP domain (human)
Technique: DHFR protein complementation
Matrix: yeast
Setting: single substitutions, most at no-binding floor
Reference: wild-type JUN-FOS pair
Reading: higher = stronger binding
Parent: JUN, bZIP domain (human); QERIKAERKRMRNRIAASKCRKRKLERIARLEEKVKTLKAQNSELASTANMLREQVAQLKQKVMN; partner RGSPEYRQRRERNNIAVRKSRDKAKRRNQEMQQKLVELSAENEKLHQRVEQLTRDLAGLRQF
With `R30A` the binding fitness was -1.23 natural log.
`L45W` has a binding fitness of -1.48 natural log.
For `R53K`, the binding fitness was -1.18 natural log.
The binding fitness of `I28T` is reported as -1.32 natural log.
The binding fitness of `V35Y` is reported as -1.51 natural log.
`Q55P` gave a binding fitness of -1.5 natural log.
The binding fitness of `E44D` is reported as -1.53 natural log.
The binding fitness of `L31F` is reported as -1.47 natural log.

Series 2
Target: PABPC1L2, full length, GST fusion (mouse, UniProt A0ABA7IW68)
Technique: RNAcompete
Form: RNA
Matrix: in vitro
Concentration: 20 nM
Setting: 7-mer, probes averaged, single round
Reference: mean of 7-mers
Reading: higher = stronger binding
Target sequence (chain): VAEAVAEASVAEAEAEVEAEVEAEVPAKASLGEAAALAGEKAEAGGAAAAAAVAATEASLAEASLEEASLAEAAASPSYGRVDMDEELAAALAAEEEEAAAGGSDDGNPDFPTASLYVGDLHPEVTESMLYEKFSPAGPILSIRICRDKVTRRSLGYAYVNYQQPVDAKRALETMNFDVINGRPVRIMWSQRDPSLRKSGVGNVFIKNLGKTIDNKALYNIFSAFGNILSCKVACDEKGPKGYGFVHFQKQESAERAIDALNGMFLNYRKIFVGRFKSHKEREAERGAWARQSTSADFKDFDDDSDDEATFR
The 7-mer Z-score of `CGAUGCA` is reported as 0.0732.
`CGAUCAG` gave a 7-mer Z-score of -0.0736.
`GAGCGCC` gave a 7-mer Z-score of -0.284.
`AAAGUUU` has a 7-mer Z-score of 0.635.
With `CAUACAG` the 7-mer Z-score was -0.05.
For `GAUUCGU`, the 7-mer Z-score was -0.405.
The 7-mer Z-score of `AGCCGUG` is reported as -0.0554.
`CGCACGA` gave a 7-mer Z-score of -0.242.

Series 3
Target: Prothrombin, mature alpha-thrombin (F2, Homo sapiens, UniProt P00734)
Technique: aptamer microarray, sandwich
Form: DNA with 2'F-ANA
Matrix: in vitro
Concentration: 200 nM
Setting: whole 15-mer aptamer, many near background
Added: Cy3 exosite-II aptamer, 400 nM
Reading: higher = stronger binding
Sequence: GGTTGGTGTGGTTGG
Under “mean fluorescence intensity”, `2'F-ANA at 1 5 6 7 9 10 13 15` is recorded as 48.1 a.u.
Under “mean fluorescence intensity”, `2'F-ANA at 1 2 3 5 6 10 11` is recorded as 47.7 a.u.
For `2'F-ANA at 1 2 3 4 5 7 9 11 12 14 15`, “mean fluorescence intensity” read 51.9 a.u.
`2'F-ANA at 1 2 5 7 8 9 14` — result for “mean fluorescence intensity”: 46 a.u.
Under “mean fluorescence intensity”, `2'F-ANA at 3 5 8 9 10 13 14 15` is recorded as 57.5 a.u.
`2'F-ANA at 2 3 4 5 7 9 10 13 15` — result for “mean fluorescence intensity”: 333 a.u.
`2'F-ANA at 1 2 3 4 7 8 9 12 13 14 15` — result for “mean fluorescence intensity”: 74.2 a.u.
`2'F-ANA at 1 4 5 8 9 10 11 15` — result for “mean fluorescence intensity”: 49.1 a.u.

Further values, each from its own experiment
The remaining binding of `CCC(=O)N[C@@H]1CC[C@H](C(=O)N(C)c2ccc(-c3nc4ccccc4o3)cc2)C1` is reported as 100% (Ribosomal protein S6 kinase alpha-6, C-terminal kinase domain (RPS6KA6, Homo sapiens, UniProt Q9UK32); cell-free assay, competition with immobilised ligand; 1 µM).

Excerpt of the above (series 1):
For `R53K`, the binding fitness was -1.18 natural log.
The binding fitness of `V35Y` is reported as -1.51 natural log.
